Experimental data of several laboratories.
Every numbered part comes from another study and shows a few of its results, in no order.

Series 1
Target: Sal-like protein 4, full length isoform B (SALL4, Homo sapiens, UniProt Q9UJQ4-2, residues 1-616)
Technique: universal PBM
Form: double-stranded DNA, one strand shown
Matrix: in vitro
Concentration: not given
Setting: 8-mer, flanks averaged, mean of replicates
Reading: higher = stronger binding
Measurement: E-score
CGCGGTGA: -0.31
ATGCGTTG: 0.122
AGGTACGC: -0.18
CACCAGCC: -0.265

Series 2
Target: Histone acetyltransferase KAT6A, both winged helices, GST fusion (KAT6A, Homo sapiens, UniProt Q92794, residues 1-181)
Technique: protein binding microarray
Form: double-stranded DNA, one strand shown
Matrix: in vitro
Concentration: not given
Setting: 8-mer, flanks averaged, mean of 2 arrays, mostly near background
Baseline: not given
Reading: higher = stronger binding
Measurement: E-score
Construct (chain): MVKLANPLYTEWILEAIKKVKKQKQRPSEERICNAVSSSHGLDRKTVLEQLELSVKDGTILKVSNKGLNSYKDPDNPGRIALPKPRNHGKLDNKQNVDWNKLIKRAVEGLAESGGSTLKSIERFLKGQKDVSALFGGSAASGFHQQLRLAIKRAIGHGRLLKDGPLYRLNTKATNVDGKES
AATCCTCA: -0.273
CACGACTC: -0.247
CATAAGGG: -0.108

Further values, each from its own experiment
IRF7 S101K/S471D/S472D/S475D/S476D/S477D/S483D/S484D/S487D full length, phosphomimetic: Interferon regulatory factor 7, full length, phosphomimetic (IRF7, Homo sapiens, UniProt Q92985, residues 1-503, S101K/S471D/S472D/S475D/S476D/S477D/S483D/S484D/S487D)
UniProt Q92985, sequence (whole entry, unmodified, looked up): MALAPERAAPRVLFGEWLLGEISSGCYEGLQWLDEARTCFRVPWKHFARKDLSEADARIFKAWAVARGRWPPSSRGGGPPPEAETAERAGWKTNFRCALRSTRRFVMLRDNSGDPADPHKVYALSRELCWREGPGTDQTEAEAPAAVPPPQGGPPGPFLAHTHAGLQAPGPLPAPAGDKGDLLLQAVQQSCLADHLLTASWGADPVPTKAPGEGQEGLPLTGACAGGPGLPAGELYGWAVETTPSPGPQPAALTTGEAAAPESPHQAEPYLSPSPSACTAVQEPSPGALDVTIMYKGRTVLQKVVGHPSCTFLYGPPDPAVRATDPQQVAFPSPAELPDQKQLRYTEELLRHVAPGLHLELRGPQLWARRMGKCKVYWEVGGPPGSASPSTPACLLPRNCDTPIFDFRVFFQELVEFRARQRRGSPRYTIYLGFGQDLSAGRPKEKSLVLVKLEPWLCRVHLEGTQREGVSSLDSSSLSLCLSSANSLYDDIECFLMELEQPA
GCCTAGCACGAGGGTTTCCTTTCCCTGACGTGCTAGGTCTTGATTCGCTTGACGCTGCTG — log fluorescence (IRF7 S101K/S471D/S472D/S475D/S476D/S477D/S483D/S484D/S487D full length, phosphomimetic; protein-binding microarray; double-stranded DNA, one strand shown, in vitro; 250 nM, 60-bp whole probe, added: salmon DNA 0.4 mg/ml; baseline: random background probes, higher = stronger binding): 3.47 z-score
PhoQ, residues 284 288 289 292 302 303 TNASYF — fold induction (PhoP, residues 12 14 15 18 19 VHSCL (Escherichia coli, UniProt P23836); Sort-seq, measured: YFP reporter; E. coli; PhoQ-PhoP variant library, added: 10 µM Mg2+; baseline: high Mg2+ state, higher = stronger signaling): 10.1
GCCTAGCACTCAAGGCTGGTCTCTAACACTGTGCTAGTCTTGATTCGCTTGACGCTGCTG — log fluorescence (IRF7 S101K/S471D/S472D/S475D/S476D/S477D/S483D/S484D/S487D full length, phosphomimetic; protein-binding microarray; double-stranded DNA, one strand shown, in vitro; 250 nM, 60-bp whole probe, added: salmon DNA 0.4 mg/ml; baseline: random background probes, higher = stronger binding): -1.32 z-score

Repeated from above (further values, each from its own experiment):
GCCTAGCACGAGGGTTTCCTTTCCCTGACGTGCTAGGTCTTGATTCGCTTGACGCTGCTG — log fluorescence (IRF7 S101K/S471D/S472D/S475D/S476D/S477D/S483D/S484D/S487D full length, phosphomimetic; protein-binding microarray; double-stranded DNA, one strand shown, in vitro; 250 nM, 60-bp whole probe, added: salmon DNA 0.4 mg/ml; baseline: random background probes, higher = stronger binding): 3.47 z-score
